Results of several laboratories.
Protocols differ between the studies behind these lines.
Cell line: HEK293
Read-out: cell growth or viability

| SMILES | assay | setting | quantity | value |
| --- | --- | --- | --- | --- |
| CO[C@H]1/C=C/O[C@@]2(C)Oc3c(C)c(O)c4c(O)c(c(/C=N/N5CCN(C)CC5)c(O)c4c3C2=O)NC(=O)/C(C)=C\C=C[C@H](C)[C@H](O)[C@@H](C)[C@@H](O)[C@@H](C)[C@H](OC(C)=O)[C@@H]1C | MTT | 24 h | CC50 | > 400 µM |
| Nc1ccn([C@@H]2O[C@H](CO)[C@@H](O)C2(F)F)c(=O)n1 | MTT | 2.5 µg/mL, 24 h | viability | 51.3% |
| Fc1cc(F)c(-c2c(Cl)nc(-c3cccs3)nc2N2CCCC2)c(F)c1 | resazurin | 48 h | CC50 | 28.2 µM |
| Cc1ccc(S(=O)(=O)[N](Nc2ccc([N+](=O)[O-])cc2[N+](=O)[O-])[Sn]([Cl])[Cl])cc1 | MTT | 62.5 µg/mL | viability | 84.3% |
| CC(C)[C@@H](C)Nc1nc(-c2cccs2)nc(Cl)c1-c1c(F)cc(N)cc1F | resazurin | 48 h | CC50 | 34 µM |
| NC(=S)NN=Cc1ccc(OC(=O)CN2C(=O)CSC2=O)cc1 | MTT | 50 µg/mL, 24 h | viability | > 70% |
| CCCc1cc(=O)oc2cc(OCc3cc(=O)c(O)co3)ccc12 | CCK-8 | 4 µM, 24 h | viability | 101% |
| N#Cc1cc(F)c(-c2c(Cl)nc(-c3cccs3)nc2NCC2CCC2)c(F)c1 | resazurin | 48 h | CC50 | > 50 µM |
| Cc1cc(NCCc2ccccc2)nc(NC(=N)Nc2ccc(Cl)cc2)n1 | MTT | 24 h | CC50 | 29.6 µM |
| Cc1ccc(Cn2cc(C(=O)N/N=C/c3ccc([N+](=O)[O-])o3)c(=O)c3cc(Cl)c(Cl)cc32)cc1 | resazurin | 48 h | CC50 | > 20 µM |
| CC(C)[C@@H](C)Nc1nc(-c2cccs2)nc(Cl)c1-c1ccc(F)cc1 | resazurin | 48 h | CC50 | > 50 µM |
| COc1ccc2c(c1)c(=O)c(C(=O)N/N=C/c1ccc([N+](=O)[O-])s1)cn2Cc1ccccc1 | resazurin | 48 h | CC50 | > 20 µM |
| Cc1ccc(S(=O)(=O)NNc2ccc([N+](=O)[O-])cc2[N+](=O)[O-])cc1 | MTT | 31.25 µg/mL | viability | 85.4% |
| CS(=O)(=O)CCNc1nc(-c2cccs2)nc(Cl)c1-c1c(F)cc(F)cc1F | resazurin | 48 h | CC50 | 10.4 µM |
| O=C(O)c1ccc(-n2nc(-c3ccccc3O)nc2-c2ccccc2O)cc1 | MTT | 24 h | CC50 | > 200 µM |
